{"data": "Measured values of several laboratories", "TAOK1": "Serine/threonine-protein kinase TAO1 (TAOK1, Homo sapiens, UniProt Q7L7X3)", "HUNK": "Hormonally up-regulated neu tumor-associated kinase (HUNK, Homo sapiens, UniProt P57058)", "KDM4B": "Lysine-specific demethylase 4B (KDM4B, Homo sapiens, UniProt O94953)", "CSNK1A1": "Casein kinase I isoform alpha (CSNK1A1, Homo sapiens, UniProt P48729)", "INSR": "Insulin receptor (INSR, Homo sapiens, UniProt P06213)", "note": "Protocols differ between the studies behind these lines. Several values in a cell are separate wells, animals, samples, runs or records. Numbers after ± are the reported error.", "sequence of UniProt P48729 (whole entry, looked up)": "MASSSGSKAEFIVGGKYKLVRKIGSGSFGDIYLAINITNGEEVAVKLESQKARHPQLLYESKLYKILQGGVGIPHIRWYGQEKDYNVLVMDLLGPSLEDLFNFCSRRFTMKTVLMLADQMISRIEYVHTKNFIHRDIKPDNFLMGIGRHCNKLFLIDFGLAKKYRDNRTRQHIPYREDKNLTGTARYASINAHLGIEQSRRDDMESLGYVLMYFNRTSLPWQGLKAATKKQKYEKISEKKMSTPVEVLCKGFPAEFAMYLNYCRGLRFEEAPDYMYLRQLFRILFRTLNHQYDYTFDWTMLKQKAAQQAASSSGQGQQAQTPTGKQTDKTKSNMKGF", "sequence of UniProt Q92626 (whole entry, looked up)": "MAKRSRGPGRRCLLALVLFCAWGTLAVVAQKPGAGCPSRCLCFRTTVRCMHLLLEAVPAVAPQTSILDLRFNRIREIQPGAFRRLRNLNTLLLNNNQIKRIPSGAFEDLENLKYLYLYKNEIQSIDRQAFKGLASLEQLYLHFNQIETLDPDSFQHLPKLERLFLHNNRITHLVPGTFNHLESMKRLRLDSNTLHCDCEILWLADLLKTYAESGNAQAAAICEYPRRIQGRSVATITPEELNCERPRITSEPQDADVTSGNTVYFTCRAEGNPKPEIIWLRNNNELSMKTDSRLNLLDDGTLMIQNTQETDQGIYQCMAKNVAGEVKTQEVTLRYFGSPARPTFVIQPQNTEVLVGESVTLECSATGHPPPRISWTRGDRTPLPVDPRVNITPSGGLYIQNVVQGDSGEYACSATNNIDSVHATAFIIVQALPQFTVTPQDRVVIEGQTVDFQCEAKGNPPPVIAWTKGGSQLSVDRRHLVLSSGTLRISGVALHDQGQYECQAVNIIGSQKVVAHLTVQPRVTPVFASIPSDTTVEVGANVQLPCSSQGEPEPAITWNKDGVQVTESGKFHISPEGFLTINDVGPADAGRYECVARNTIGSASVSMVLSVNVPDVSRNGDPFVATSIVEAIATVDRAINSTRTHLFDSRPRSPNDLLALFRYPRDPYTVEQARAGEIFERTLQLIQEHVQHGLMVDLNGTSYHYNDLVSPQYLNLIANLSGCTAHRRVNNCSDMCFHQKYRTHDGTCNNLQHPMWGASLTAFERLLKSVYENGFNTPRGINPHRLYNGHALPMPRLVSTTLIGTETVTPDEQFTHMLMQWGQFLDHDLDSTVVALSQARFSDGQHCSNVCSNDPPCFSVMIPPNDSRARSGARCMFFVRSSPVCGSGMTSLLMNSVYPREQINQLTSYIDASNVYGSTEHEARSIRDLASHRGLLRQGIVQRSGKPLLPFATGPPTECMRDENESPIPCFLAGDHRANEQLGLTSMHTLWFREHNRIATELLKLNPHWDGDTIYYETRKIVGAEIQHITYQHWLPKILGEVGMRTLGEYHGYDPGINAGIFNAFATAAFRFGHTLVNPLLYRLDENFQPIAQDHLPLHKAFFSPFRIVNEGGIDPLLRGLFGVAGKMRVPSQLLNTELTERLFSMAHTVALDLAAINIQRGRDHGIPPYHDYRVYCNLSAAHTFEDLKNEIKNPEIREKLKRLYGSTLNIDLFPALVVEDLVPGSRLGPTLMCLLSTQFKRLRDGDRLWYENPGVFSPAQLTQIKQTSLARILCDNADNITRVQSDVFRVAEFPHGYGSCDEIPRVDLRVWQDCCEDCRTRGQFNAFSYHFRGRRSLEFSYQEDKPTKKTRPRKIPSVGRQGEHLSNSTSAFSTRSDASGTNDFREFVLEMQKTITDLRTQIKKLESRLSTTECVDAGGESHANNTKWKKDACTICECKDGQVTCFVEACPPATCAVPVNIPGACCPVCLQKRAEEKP", "sequence of UniProt P06213 (whole entry, looked up)": "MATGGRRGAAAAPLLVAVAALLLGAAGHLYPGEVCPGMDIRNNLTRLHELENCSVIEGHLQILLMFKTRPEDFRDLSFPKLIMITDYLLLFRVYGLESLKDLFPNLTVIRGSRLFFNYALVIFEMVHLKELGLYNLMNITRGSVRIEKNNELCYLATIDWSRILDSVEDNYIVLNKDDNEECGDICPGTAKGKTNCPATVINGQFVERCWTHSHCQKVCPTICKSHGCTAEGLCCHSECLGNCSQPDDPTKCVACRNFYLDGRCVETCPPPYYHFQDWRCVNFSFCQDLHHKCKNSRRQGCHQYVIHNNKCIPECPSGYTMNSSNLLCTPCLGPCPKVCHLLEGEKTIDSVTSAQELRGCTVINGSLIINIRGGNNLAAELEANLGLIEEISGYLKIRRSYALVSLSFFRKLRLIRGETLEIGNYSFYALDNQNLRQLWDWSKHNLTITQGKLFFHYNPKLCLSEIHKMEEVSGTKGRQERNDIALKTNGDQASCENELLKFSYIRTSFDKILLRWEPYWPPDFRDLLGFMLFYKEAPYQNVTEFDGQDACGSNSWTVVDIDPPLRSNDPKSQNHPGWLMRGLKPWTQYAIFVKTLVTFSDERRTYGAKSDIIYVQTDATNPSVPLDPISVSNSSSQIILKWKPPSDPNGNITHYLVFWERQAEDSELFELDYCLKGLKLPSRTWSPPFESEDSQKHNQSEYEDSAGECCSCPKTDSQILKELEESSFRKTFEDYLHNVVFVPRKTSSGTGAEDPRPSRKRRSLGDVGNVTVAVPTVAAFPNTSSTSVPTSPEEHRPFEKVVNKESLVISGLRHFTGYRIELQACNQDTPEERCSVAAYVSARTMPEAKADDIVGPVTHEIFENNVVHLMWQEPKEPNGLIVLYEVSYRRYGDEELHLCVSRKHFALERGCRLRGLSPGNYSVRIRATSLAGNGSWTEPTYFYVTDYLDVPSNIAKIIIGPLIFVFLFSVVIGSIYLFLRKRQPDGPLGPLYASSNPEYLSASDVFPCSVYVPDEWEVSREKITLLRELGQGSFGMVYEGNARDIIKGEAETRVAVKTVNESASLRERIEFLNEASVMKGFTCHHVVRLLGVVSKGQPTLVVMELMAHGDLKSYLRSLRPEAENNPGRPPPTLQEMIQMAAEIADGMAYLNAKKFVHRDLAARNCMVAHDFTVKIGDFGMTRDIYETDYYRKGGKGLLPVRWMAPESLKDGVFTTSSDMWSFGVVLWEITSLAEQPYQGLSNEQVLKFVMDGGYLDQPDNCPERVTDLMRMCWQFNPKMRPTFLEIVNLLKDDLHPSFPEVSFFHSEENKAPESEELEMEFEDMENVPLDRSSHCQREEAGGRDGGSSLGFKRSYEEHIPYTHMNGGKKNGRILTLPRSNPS", "sequence of UniProt Q7L7X3 (whole entry, looked up)": "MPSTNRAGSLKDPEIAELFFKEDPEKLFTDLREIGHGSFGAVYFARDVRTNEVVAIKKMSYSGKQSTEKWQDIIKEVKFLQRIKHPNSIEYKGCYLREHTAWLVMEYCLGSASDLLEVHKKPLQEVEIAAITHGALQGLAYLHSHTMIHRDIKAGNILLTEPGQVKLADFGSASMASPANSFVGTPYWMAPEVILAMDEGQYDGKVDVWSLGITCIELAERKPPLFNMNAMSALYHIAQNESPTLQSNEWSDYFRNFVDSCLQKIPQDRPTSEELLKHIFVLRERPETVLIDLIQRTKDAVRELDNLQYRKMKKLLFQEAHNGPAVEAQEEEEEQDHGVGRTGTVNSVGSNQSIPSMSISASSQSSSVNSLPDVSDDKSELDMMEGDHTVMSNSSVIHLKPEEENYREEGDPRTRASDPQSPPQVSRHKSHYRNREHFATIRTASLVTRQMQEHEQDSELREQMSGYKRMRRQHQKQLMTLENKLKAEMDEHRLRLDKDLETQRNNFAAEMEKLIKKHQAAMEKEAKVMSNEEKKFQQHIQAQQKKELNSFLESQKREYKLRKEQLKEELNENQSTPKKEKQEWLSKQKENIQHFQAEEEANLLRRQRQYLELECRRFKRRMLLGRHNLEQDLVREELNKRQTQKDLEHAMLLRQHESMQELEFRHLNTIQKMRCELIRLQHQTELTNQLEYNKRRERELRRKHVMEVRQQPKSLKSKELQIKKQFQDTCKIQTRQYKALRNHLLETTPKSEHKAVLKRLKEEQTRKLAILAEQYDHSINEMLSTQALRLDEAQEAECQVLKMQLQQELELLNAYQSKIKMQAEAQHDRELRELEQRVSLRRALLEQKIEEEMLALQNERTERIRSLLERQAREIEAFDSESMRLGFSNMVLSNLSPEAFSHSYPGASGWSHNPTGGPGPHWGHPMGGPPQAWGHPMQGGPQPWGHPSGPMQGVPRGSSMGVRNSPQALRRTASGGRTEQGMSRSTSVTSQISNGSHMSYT", "sequence of UniProt P57058 (whole entry, looked up)": "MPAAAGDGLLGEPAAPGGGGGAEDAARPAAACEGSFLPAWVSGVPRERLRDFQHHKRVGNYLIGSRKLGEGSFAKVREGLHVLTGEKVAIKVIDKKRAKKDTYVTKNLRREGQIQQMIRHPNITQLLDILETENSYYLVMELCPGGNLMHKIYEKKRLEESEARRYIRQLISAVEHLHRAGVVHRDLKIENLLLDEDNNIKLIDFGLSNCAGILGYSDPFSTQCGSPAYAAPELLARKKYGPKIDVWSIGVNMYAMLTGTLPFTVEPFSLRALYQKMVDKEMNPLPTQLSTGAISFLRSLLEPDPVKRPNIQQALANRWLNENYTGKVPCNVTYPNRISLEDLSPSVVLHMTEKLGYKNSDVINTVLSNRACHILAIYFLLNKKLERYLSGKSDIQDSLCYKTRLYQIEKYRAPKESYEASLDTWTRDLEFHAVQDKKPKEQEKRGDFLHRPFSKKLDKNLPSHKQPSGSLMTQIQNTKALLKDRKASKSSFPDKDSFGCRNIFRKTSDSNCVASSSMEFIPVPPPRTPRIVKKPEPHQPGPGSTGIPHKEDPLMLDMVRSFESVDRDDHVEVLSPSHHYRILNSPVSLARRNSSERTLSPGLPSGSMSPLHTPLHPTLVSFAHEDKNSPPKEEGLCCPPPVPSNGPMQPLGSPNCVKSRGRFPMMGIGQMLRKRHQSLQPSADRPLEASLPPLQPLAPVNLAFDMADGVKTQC"}
{"SMILES": "COc1cc(-c2cncc3c2CN(C)Cc2cc(N4CCNCC4)ccc2-3)cc(OC)c1OC", "target or system": "MAP/microtubule affinity-regulating kinase 3 (MARK3, Homo sapiens, UniProt P27448)", "test": "kinase activity", "conditions": "1 µM, human enzyme, together with: ATP 10 µM", "scale": "reference: DMSO control", "measurement": "remaining activity", "value": "111%"}
{"SMILES": "O=C(Nc1ccc(F)c(Br)c1)c1ccc2c(c1)C(=O)NC2=O", "target or system": "Amine oxidase [flavin-containing] B (MAOB, Homo sapiens, UniProt P27338)", "test": "inhibitor", "conditions": "4 × IC50, after dialysis", "scale": "reference: control", "measurement": "remaining activity", "value": "86.2%"}
{"SMILES": "COc1cc(N2CCN(C)CC2)ccc1Nc1nc(N)n(C(=S)NCc2c(Cl)cccc2Cl)n1", "target or system": "G protein-coupled receptor kinase 4 (GRK4, Homo sapiens, UniProt P32298)", "test": "enzyme activity", "conditions": "10 µM", "scale": "reference: control", "measurement": "remaining activity", "value": "0.25%"}
{"SMILES": "O=C(NC1CCC1)c1ccc2nc(-c3cccc(NS(=O)(=O)NCCN4CCCCC4)c3)cn2c1", "target or system": "TAOK1", "test": "enzyme activity", "conditions": "10 µM", "measurement": "remaining activity", "value": "98%"}
{"SMILES": "CC(C)C[C@H](NC(=O)C[C@H](O)[C@H](CC(C)C)NC(=O)[C@H](Cc1c[nH]cn1)NC(=O)CNC(=O)[C@@H](NC(=O)[C@H](C)NC(=O)[C@H](Cc1c[nH]c2ccccc12)NC(=O)[C@H](CCC(N)=O)NC(=O)[C@@H](Cc1ccccc1)NC(=O)COCCOCCNC(=O)CCC(C(=O)O)N1CCN(CC(=O)O)CCN(CC(=O)O)CCN(CC(=O)O)CC1)C(C)C)C(N)=O (stereo partly shown) [lutetium-177 labelled]", "test system": "BALB/c nu/nu mice, female, liver", "conditions": "50 pmol, 1 h, together with: PBS co-injection", "measurement": "tissue uptake", "value": "1.1 ± 0.3 %ID/g"}
{"SMILES": "COc1cc(F)ccc1-c1ncnc(Nc2cccc(C[S@](C)(=N)=O)c2)n1", "target or system": "Ephrin type-A receptor 8 (EPHA8, Homo sapiens, UniProt P29322)", "test": "kinase activity", "conditions": "10 µM, together with: 10 µM ATP", "measurement": "remaining activity", "value": "90%"}
{"SMILES": "COc1cc(N2CCN(C)CC2)ccc1Nc1nc(N)n(C(=O)NCc2ccccc2S(=O)(=O)C(C)C)n1", "target or system": "HUNK", "test": "enzyme activity", "conditions": "10 µM", "scale": "reference: control", "measurement": "remaining activity", "value": "0.85%"}
{"SMILES": "CNc1ncc2c(/C=C/C(=O)N3CCC(OC)CC3)nn(Cc3cccc(C(F)(F)F)c3)c2n1", "target or system": "Activin receptor type-1-like (ACVRL1, Homo sapiens, UniProt P37023)", "test": "kinase activity, inhibitor", "conditions": "1 µM", "scale": "reference: untreated control", "measurement": "remaining activity", "value": "92%"}
{"SMILES": "O=C(O)C[C@H](O)[C@H](O)CO", "test": "binding, MIDAS equilibrium dialysis LC-MS", "test system": "A2AR-BRIL thermostabilized", "conditions": "concentration not given", "scale": "reference: no-protein control", "measurement": "log2 fold change", "value": -0.0711}
{"SMILES": "C1=C/COCc2cc(ccc2OCCN2CCCC2)Nc2nccc(n2)-c2cccc(c2)COC/1", "target or system": "Epidermal growth factor receptor (EGFR, Homo sapiens, UniProt P00533, L858R)", "conditions": "concentration not given", "scale": "reference: untreated control", "measurement": "remaining activity", "value": "71%"}
{"SMILES": "O=C(O)/C=C(/CC(=O)O)C(=O)O", "test": "binding, MIDAS equilibrium dialysis LC-MS", "test system": "A2AR-BRIL thermostabilized", "conditions": "concentration not given", "scale": "reference: no-protein control", "measurement": "log2 fold change", "value": -0.189}
{"SMILES": "O=[N+]([O-])c1ccc(N=Nc2c(O)ccc3ccccc23)c([N+](=O)[O-])c1", "target or system": "KDM4B", "conditions": "concentration not given", "measurement": "remaining activity", "value": "90%"}
{"SMILES": "Fc1ccc(-c2nn3cc(F)ccc3c2-c2ccncc2)cc1", "target or system": "CSNK1A1", "test": "kinase activity, inhibitor, ADP-Glo", "conditions": "0.574 µM, 0.5 h", "measurement": "remaining activity", "value": "56.9% and 48.3%"}
{"SMILES": "OC[C@H]1OC(O)[C@H](O)[C@@H](O)[C@@H]1O (stereo partly shown)", "target or system": "Alpha-L-fucosidase AlfC (Lacticaseibacillus rhamnosus, UniProt A0A809N2S1)", "test": "inhibitor", "conditions": "1000 µM, 5 min", "scale": "reference: untreated", "measurement": "remaining activity", "value": "107 ± 2.4%"}
{"SMILES": "C[C@@H](Oc1ccc(S(C)(=O)=O)cc1C(=O)N1C[C@@H]2C[C@]2(c2cc(C(F)(F)F)on2)C1)C(F)(F)F", "target or system": "Sodium- and chloride-dependent glycine transporter 1 (SLC6A9, Homo sapiens, UniProt P48067, G373S)", "test": "glycine uptake, inhibitor, [3H]glycine uptake", "conditions": "0.002 µM, G319S mutant, log concentration 2, together with: [3H]glycine", "scale": "reference: no inhibitor", "measurement": "remaining activity", "value": "91.7%"}
{"SMILES": "c1cnc2ccc(Nc3nc(NC4CC4)c4nc[nH]c4n3)cc2c1", "target or system": "Protein kinase C delta type (PRKCD, Homo sapiens, UniProt Q05655)", "test": "kinase activity, inhibitor, SelectScreen kinase profiling", "conditions": "1 µM", "scale": "reference: control", "measurement": "remaining activity", "value": "77%"}
{"SMILES": "COc1cc(Nc2ncc3c(n2)-c2ccc(Cl)cc2C(c2c(F)cccc2OC)=NC3)ccc1C(=O)O", "target or system": "NEK2", "test": "kinase activity", "conditions": "1 µM", "measurement": "remaining activity", "value": "96%"}
{"SMILES": "Cc1[nH]c(/C=C2\\C(=O)Nc3ccc(F)cc32)c(C)c1C(=O)N[C@H]1CCN(C(=O)N(C)C)C1", "target or system": "Serine/threonine-protein kinase Chk1 (CHEK1, Homo sapiens, UniProt O14757)", "test": "kinase activity, inhibitor", "conditions": "0.1 µM", "scale": "reference: no-compound control", "measurement": "remaining activity", "value": "99%"}
{"SMILES": "COc1cc(N2CCN(C)CC2)ccc1Nc1nc(N)n(C(=O)NCc2c(Cl)cccc2Cl)n1", "target or system": "INSR", "test": "enzyme activity", "conditions": "10 µM", "scale": "reference: control", "measurement": "remaining activity", "value": "4.6%"}
{"SMILES": "COc1ccc(F)cc1C(=O)NCc1ccc(-c2nn([C@@H](C)C(F)(F)F)c(N)c2C(N)=O)cc1", "target or system": "Tyrosine-protein kinase Fgr (FGR, Homo sapiens, UniProt P09769)", "test": "kinase activity, inhibitor, HotSpot radiometric", "conditions": "100 nM, together with: ATP 10 µM", "measurement": "remaining activity", "value": "81 ± 0.5%"}
{"SMILES": "Cc1cc(Nc2cc(N3CCN(C)CC3)nc(Sc3ccc(NC(=O)C4CC4)cc3)n2)[nH]n1", "target or system": "Dual specificity tyrosine-phosphorylation-regulated kinase 2 (DYRK2, Homo sapiens, UniProt Q92630)", "test": "kinase activity, KinaseProfiler", "conditions": "0.03 µM, species human", "scale": "reference: control", "measurement": "remaining activity", "value": "103%"}
{"SMILES": "C/C(=N/Nc1ccc([N+](=O)[O-])cc1[N+](=O)[O-])c1ccccc1", "target or system": "KDM4B", "conditions": "concentration not given", "measurement": "remaining activity", "value": "52%"}
{"SMILES": "CC(C)Oc1cc(N2CCN(C)CC2)ccc1Nc1nc(N)n(C(=O)NCc2ccccc2S(=O)(=O)C(C)C)n1", "target or system": "HUNK", "test": "enzyme activity", "conditions": "10 µM", "scale": "reference: control", "measurement": "remaining activity", "value": "12%"}
{"SMILES": "NC/C(=C\\F)COc1cccc(Cn2c(=S)[nH]c(=O)c3[nH]cnc32)c1", "target or system": "Peroxidasin homolog (PXDN, Homo sapiens, UniProt Q92626)", "test": "enzyme activity, inhibitor, Amplex UltraRed", "conditions": "0.625 µM", "scale": "reference: control", "measurement": "remaining activity", "value": "98.1% and 98.4%"}
{"SMILES": "C[C@H]1[C@H](OC(=O)CCC(=O)O)O[C@@H]2O[C@@]3(C)CC[C@H]4[C@H](C)CC[C@@H]1[C@@]24OO3", "target or system": "Non-structural polyprotein pORF1, helicase domain (Hepatitis E virus genotype 1, UniProt P33424)", "test": "ATPase activity, inhibitor, colorimetric", "conditions": "78 µM", "scale": "reference: untreated", "measurement": "remaining activity", "value": "44.7%"}
{"SMILES": "Fc1ccc(-c2nc3cc(F)ccn3c2-c2ccncc2)cc1", "target or system": "CSNK1A1", "test": "kinase activity, inhibitor, ADP-Glo", "conditions": "1.176 µM, 0.5 h", "measurement": "remaining activity", "value": "16.4%"}
{"SMILES": "O=C(O)c1ccc(Nc2ncc3c(n2)-c2ccc(Cl)cc2C(c2c(F)cccc2F)=NC3)cc1", "target or system": "BrSK2(h)", "test": "kinase activity", "conditions": "1 µM", "measurement": "remaining activity", "value": "99%"}
{"SMILES": "N[C@@H]1CC[C@@H](c2ccc(Cl)c(Cl)c2)c2ccccc21", "target or system": "Sodium-dependent dopamine transporter (SLC6A3, Homo sapiens, UniProt Q01959, S422A)", "test": "dopamine uptake", "conditions": "0.004 µM, 0.03333 h, S422A mutant, together with: [3H]dopamine", "scale": "reference: no inhibitor", "measurement": "remaining activity", "value": "22.8%"}
{"SMILES": "O=C1NC(=O)/C(=C/c2ccc(-c3ccc(F)cc3O)o2)S1", "target or system": "INSR", "test": "enzyme activity", "conditions": "10 µM", "measurement": "remaining activity", "value": "94%"}
{"SMILES": "C=CC(=O)N1CCC[C@@H](n2nc(-c3ccc(Oc4ccccc4)cc3)c3c(N)ncnc32)C1", "target or system": "Ephrin type-B receptor 4 (EPHB4, Homo sapiens, UniProt P54760)", "conditions": "0.1 µM", "measurement": "remaining activity", "value": "122%"}
{"SMILES": "Nc1ncc2c(n1)-c1c([nH]c3ccc(-c4ccc(F)cc4)cc13)CCC2", "target or system": "TAOK1", "test": "kinase activity, inhibitor, radiometric", "conditions": "1 µM, together with: ATP at Km", "measurement": "remaining activity", "value": "87%"}
{"note": "A few entries again:"}
{"SMILES": "Cc1cc(Nc2cc(N3CCN(C)CC3)nc(Sc3ccc(NC(=O)C4CC4)cc3)n2)[nH]n1", "target or system": "Dual specificity tyrosine-phosphorylation-regulated kinase 2 (DYRK2, Homo sapiens, UniProt Q92630)", "test": "kinase activity, KinaseProfiler", "conditions": "0.03 µM, species human", "scale": "reference: control", "measurement": "remaining activity", "value": "103%"}
{"SMILES": "C/C(=N/Nc1ccc([N+](=O)[O-])cc1[N+](=O)[O-])c1ccccc1", "target or system": "KDM4B", "conditions": "concentration not given", "measurement": "remaining activity", "value": "52%"}
{"SMILES": "CC(C)Oc1cc(N2CCN(C)CC2)ccc1Nc1nc(N)n(C(=O)NCc2ccccc2S(=O)(=O)C(C)C)n1", "target or system": "HUNK", "test": "enzyme activity", "conditions": "10 µM", "scale": "reference: control", "measurement": "remaining activity", "value": "12%"}
